Measurements collected from several papers.
Numbered parts are unrelated; each lists some results of a single study.

Sample 1
Target: Max-binding protein MNT, bHLH-zipper, MAX partner unstated (MNT, Homo sapiens, UniProt Q99583, residues 220-300)
Method: protein-binding microarray
Molecule type: double-stranded DNA, one strand shown
Sample: in vitro
Concentration: not given
Notes: k-mer, scored over probes, only values ≥0.25
Reading: higher = stronger binding
Construct (chain): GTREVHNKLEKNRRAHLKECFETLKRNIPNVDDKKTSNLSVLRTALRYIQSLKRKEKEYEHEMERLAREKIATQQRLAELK
Strand | E-score
CGCACGAG | 0.437
GCACGACA | 0.27
CATGCGCG | 0.404
GCATGCCA | 0.355
ACCCTCGT | 0.255
ATACATGC | 0.317
GCGCGTGA | 0.393
CACATGAG | 0.394
ACGCGCTG | 0.304
ATGTGACG | 0.302
CCTGCACG | 0.355
CACGTGGC | 0.498
CACGCATA | 0.318
CAGGCATG | 0.322
GCACGTCA | 0.266
CTTGGGGA | 0.321
CATGTATC | 0.298

Sample 2
Target: Prothrombin, mature alpha-thrombin (F2, Homo sapiens, UniProt P00734)
Method: aptamer microarray, sandwich
Molecule type: DNA with 2'F-ANA
Sample: in vitro
Concentration: 200 nM
Notes: whole 15-mer aptamer, many near background
With: Cy3 exosite-II aptamer, 400 nM
Reading: higher = stronger binding
Strand: GGTTGGTGTGGTTGG
Modification | mean fluorescence intensity
2'F-ANA at 2 8 10 11 13 14 15 | 74.1 a.u.
2'F-ANA at 1 3 5 6 7 10 11 14 15 | 68.4 a.u.
2'F-ANA at 3 5 6 7 8 10 11 | 204 a.u.
2'F-ANA at 1 2 7 12 13 14 15 | 64.7 a.u.
2'F-ANA at 2 3 6 7 9 10 11 12 13 15 | 310 a.u.
2'F-ANA at 1 2 3 5 7 9 12 13 15 | 81.9 a.u.
2'F-ANA at 2 4 7 8 11 13 15 | 245 a.u.
2'F-ANA at 2 5 7 9 11 12 13 15 | 113 a.u.
2'F-ANA at 3 4 5 6 9 10 15 | 52.5 a.u.
2'F-ANA at 1 4 7 8 9 10 12 15 | 62.4 a.u.
2'F-ANA at 5 6 8 10 11 13 14 15 | 45.8 a.u.
2'F-ANA at 1 2 3 4 6 9 10 12 13 | 66.2 a.u.
2'F-ANA at 1 2 3 4 5 6 8 9 10 11 | 49.7 a.u.
2'F-ANA at 1 2 7 8 10 11 12 14 | 48.4 a.u.

Sample 3
Target: Histone acetyltransferase KAT6A, winged helix 1, GST fusion (KAT6A, Homo sapiens, UniProt Q92794, residues 1-85)
Method: protein binding microarray
Molecule type: double-stranded DNA, one strand shown
Sample: in vitro
Concentration: not given
Notes: 8-mer, flanks averaged, mean of 2 arrays, mostly near background
Relative to: not given
Reading: higher = stronger binding
Residues (chain): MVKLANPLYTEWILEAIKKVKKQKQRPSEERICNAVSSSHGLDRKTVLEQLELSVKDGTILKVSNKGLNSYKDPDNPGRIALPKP
Strand | E-score
AAAGTTGC | -0.0713
AGGAGGGG | -0.244
AGCGCCGC | 0.446
GAACGTTC | -0.142
GCATTAGA | 0.000745
CTCGTGCC | 0.0725
ACGTATAA | 0.022
AGAGATTG | -0.0496
AGCGGTAG | 0.129
AGAGAAGA | -0.135
ATTTCATC | -0.237
GTCCGTGA | 0.191
TCGAATAA | -0.145
ACTTGGTA | -0.116
CCGGGCCG | 0.42
CGGCGCCC | 0.426
GGGCATGA | -0.0491

Sample 4
Target: Ras GTPase-activating protein-binding protein 1, full length (G3BP1, Homo sapiens, UniProt Q13283)
Sequence of UniProt Q13283 (whole entry, looked up): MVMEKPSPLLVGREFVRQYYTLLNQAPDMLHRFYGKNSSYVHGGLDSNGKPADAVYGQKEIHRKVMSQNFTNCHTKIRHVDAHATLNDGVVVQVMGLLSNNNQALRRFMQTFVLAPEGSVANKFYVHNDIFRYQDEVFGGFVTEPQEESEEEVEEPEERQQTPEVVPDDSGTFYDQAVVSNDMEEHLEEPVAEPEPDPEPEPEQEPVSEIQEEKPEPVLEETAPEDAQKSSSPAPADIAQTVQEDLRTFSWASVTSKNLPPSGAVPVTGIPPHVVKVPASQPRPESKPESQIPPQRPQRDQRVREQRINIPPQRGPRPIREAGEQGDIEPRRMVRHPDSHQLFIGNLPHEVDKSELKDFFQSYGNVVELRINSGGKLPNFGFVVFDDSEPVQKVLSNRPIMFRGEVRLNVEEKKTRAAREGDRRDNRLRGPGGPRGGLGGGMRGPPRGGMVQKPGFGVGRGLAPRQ
Method: RNA Bind-n-Seq
Molecule type: RNA
Sample: in vitro
Concentration: 200 nM
Notes: whole 134-nt RNA, ends assumed
With: 150 mM LiCl
Relative to: input library
Reading: higher = stronger binding
Library: 7-deaza-guanosine replaces G
Strand | log2 enrichment
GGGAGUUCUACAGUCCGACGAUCGCAGGAAGUAAAAACAAAUGGAAAUAAAUCGGAUAGUGGCAGGGGUGGGGGUUGCUAAGGAAAGGGUGGGAUGGGAGUGGGUAAAGAGUUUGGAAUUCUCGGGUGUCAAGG | 0.255
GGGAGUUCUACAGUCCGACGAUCCCUGUGCUACACAUCGUAUGUACCGAAUCGGGGCCCCCCCGGCCCCCCCGGGCCCCCCCGGAAAGUAUUAUGUUACGCCGUUCGGAUCUGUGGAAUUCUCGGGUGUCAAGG | 1.2
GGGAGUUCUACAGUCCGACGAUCAAGUCCUGUGCUACACAUCGUAUGUACCGAAUCGGGGUUUGGGGUUUGGGGUUUGGGAAAGUAUUAUGUUACGCCGUUCGGAUCUGCACUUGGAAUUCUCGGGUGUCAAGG | -0.357
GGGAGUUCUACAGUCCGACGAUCUCAAGUCCUGUGCUACACAUCGUAUGUACCGAAUCGGAAAGGUUUUUUUGGUGGAAAGUAUUAUGUUACGCCGUUCGGAUCUGCACUUCCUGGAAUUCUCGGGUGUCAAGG | -0.377
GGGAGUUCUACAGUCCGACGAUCCACAGACAACACGCACCCACACAGACAUAGAGGGAAGGGGUUGGGAUGGGGACAGGGUGCACAGCAGGGCGGGGUAGGACCCCAGCCCCUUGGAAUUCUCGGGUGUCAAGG | -0.188
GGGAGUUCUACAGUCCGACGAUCCUGUGCUACACAUCGUAUGUACCGAAUCGGGGAAAGGGGAAAAAAAGGGGUUUUUUUGGGGAAAGUAUUAUGUUACGCCGUUCGGAUCUGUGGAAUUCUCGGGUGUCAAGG | 0.248

Sample 5
Target: RNA binding protein fox-1 homolog 2, RRM domain, GST-SBP tag (RBFOX2, Homo sapiens, UniProt O43251-10, residues 100-194)
Method: RNA Bind-n-Seq
Molecule type: RNA
Sample: in vitro
Concentration: 365 nM
Notes: natural RNA segment, single round, ends assumed
Relative to: no-protein control
Reading: higher = stronger binding
Construct (chain): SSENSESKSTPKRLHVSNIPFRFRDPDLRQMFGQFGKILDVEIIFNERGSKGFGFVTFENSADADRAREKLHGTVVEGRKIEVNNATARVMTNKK
Strand | RBNS enrichment (R)
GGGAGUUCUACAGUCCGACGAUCCCGUCCUUUCCAAUACGAUUUUCUGUUGCACCUUGUAGUGGAUUCUGCAUAUCAUCUUUCCCACCUAAAAAUGUCUGAAUGCUUACACAAAUAAAUUUUAUAACACGCUUUGGAAUUCUCGGGUGCCAA | 1.18
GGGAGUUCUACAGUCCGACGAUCGUGGAAGGGUUGGGGGAAGAGCUCCAGCCUGUCUGCUCCCCAGCUCUGUAGUGGCAGACCAGCGUCACCUUUGAAGUAUACGUGAGAGAAAUAUAUUUACAAAUGCUUUAUGGAAUUCUCGGGUGCCAA | 1.32
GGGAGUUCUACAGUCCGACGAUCAUAGUACACACUAAGUUUCCCACUAGCAGAGUCCUCGCCAUGUCAUUUCUACCUCCAAAGUCAUCAGAGCCUGCUUGUCCACAUCUGGUCCAGGUGGGAGUACAAGGAAGUGGAAUUCUCGGGUGCCAA | 0.319
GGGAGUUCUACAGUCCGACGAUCCCUGCAGUUCAGGUGAUACAUUUACCAGUGUUCUUGUUUGUGUGGUGCCAGGAAAUUGAUUUUGGAAAAAGUGAAAUAACAUUAAAGGUGAAUGUGAGGCUUCUACUUUUUGGAAUUCUCGGGUGCCAA | 1.05
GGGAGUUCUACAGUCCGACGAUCGCGCCCCCAAACACACACAACAACAGAGGUUACCCUGUUCUGUCUACUCUACAGUGACUACCUGUGGGCCAGGCCAUCUAAACUGAGAGGGGGAAAGAUUCUACUUCAAAUGGAAUUCUCGGGUGCCAA | 0.268
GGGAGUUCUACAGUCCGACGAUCUUGGGAGGCCAAGGUAGGUGGAUACCUGAGGUCAGGAGUUCAAGACCAGCCUGGCCAACAUGGUGAAACCCCGUCUCUACUAAAAAUACAAAAAUUAGCUGGGCGUGGUGUGGAAUUCUCGGGUGCCAA | 0.278
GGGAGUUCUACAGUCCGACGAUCAGGGUCGGUGGCUGCCUCGCUCCGUCCACCCGUGUGUGUGUCCGGUGGGUCUCCACUGCGGGGCCAGGGCCACGCUCACCCCUCUCGCGGCCCCUCCUCUGCUUCCCCCUUGGAAUUCUCGGGUGCCAA | 0.534
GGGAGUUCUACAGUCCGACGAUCGCAGUCAAUAUAGGAUCUCAGGCCAGGCCCGCUUUUCUAGAAUGUGUUUAAUUUUGAGUUUGCUUUAUUAGAUAUGUUUUUUAAGAGCUCUGUAUAUUUGAACUGCUCCUUGGAAUUCUCGGGUGCCAA | 0.437
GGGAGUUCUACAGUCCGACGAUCUCAACGAUUAUAGAGAGCCUUUUCUGUCCAAGCUGUCUCAUUCCAGUCCUCUAACACCCCUUGAGACCAAUUCUGCCACUGUAUUUAGAAGCUUUGAGUUAAAGGAUUUGUGGAAUUCUCGGGUGCCAA | 0.388
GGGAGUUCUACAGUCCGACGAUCGCCCUUGCUGGUCUCUCCACACAUUCCUGUCAUUGAGACUUGAAUUGUAGGUGUGAUGUUAUGCACAGGAUGCUCAGAGCUAUGUUACUACUAUUCUUAGUUUGUAAAUUUGGAAUUCUCGGGUGCCAA | 0.293
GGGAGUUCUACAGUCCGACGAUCUCUUUCUGGCCUUUUGGGGGGCAGUGUCUGUGCCAUGCCUAAUAGAUAUGACCAGACGCAUCCUAAGAUGUUGAUUCUUACUGUGUUGUAUAAAAUAAAGUGUAGUUUACUGGAAUUCUCGGGUGCCAA | 0.322

Sample 6
Target: Interferon regulatory factor 7, full length, phosphomimetic (IRF7, Homo sapiens, UniProt Q92985, residues 1-503, S471D/S472D/S475D/S476D/S477D/S483D/S484D/S487D)
Method: protein-binding microarray
Molecule type: double-stranded DNA, one strand shown
Sample: in vitro
Concentration: 2200 nM top
Notes: 60-bp whole probe
With: salmon DNA 0.4 mg/ml
Relative to: random background probes
Reading: higher = stronger binding
All sequences stand within: GCCTAGCAC … GTCTTGATTCGCTTGACGCTGCTG
Residues (chain): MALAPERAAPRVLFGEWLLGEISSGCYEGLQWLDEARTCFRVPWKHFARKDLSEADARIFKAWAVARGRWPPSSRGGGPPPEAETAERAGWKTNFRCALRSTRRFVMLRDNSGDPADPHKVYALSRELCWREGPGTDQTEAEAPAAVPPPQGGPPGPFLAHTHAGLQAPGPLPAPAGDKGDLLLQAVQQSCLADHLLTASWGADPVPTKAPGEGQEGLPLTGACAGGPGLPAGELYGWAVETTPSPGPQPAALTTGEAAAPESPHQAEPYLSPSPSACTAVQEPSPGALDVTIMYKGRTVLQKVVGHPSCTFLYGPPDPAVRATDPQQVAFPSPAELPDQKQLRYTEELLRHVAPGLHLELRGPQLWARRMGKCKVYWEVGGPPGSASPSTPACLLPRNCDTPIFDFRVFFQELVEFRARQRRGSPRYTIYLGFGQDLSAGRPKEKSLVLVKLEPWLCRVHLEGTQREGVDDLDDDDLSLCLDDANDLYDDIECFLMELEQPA
Strand | fitted relative affinity [z-score]
GACGAATTCAGTTTCGAGACGTGCTAG | 3.81
GACCGTTTCGGTATCGGGACGTGCTAG | 5.51
TTAGATCTCGGGACTGGATTAGTGCTA | -0.317
GTCGGTTTCGGGTTTCGGGACGTGCTA | 11.4
TCACCAATCTCTCTTCAACTGTGCTAG | 1.35
TTAGGTATCGGTTTCGGTTTGTGCTAG | 13
TTAGCTTTCGACTATCGGTTAGTGCTA | 3.8
CCTTATCCCTAATCTCAGCCTGTGCTA | 1.5
GACGGTATCCTTTTCCCGACGTGCTAG | 1.43
TTACGTTTCGACTTTCGGTTAGTGCTA | 10.8
TTAGGTTTCCTGCTGCTTTAGTGCTAG | 1.27

Sample 7
Target: Sal-like protein 4, full length isoform A (SALL4, Homo sapiens, UniProt Q9UJQ4, residues 1-1053)
Sequence of UniProt Q9UJQ4 (whole entry, looked up): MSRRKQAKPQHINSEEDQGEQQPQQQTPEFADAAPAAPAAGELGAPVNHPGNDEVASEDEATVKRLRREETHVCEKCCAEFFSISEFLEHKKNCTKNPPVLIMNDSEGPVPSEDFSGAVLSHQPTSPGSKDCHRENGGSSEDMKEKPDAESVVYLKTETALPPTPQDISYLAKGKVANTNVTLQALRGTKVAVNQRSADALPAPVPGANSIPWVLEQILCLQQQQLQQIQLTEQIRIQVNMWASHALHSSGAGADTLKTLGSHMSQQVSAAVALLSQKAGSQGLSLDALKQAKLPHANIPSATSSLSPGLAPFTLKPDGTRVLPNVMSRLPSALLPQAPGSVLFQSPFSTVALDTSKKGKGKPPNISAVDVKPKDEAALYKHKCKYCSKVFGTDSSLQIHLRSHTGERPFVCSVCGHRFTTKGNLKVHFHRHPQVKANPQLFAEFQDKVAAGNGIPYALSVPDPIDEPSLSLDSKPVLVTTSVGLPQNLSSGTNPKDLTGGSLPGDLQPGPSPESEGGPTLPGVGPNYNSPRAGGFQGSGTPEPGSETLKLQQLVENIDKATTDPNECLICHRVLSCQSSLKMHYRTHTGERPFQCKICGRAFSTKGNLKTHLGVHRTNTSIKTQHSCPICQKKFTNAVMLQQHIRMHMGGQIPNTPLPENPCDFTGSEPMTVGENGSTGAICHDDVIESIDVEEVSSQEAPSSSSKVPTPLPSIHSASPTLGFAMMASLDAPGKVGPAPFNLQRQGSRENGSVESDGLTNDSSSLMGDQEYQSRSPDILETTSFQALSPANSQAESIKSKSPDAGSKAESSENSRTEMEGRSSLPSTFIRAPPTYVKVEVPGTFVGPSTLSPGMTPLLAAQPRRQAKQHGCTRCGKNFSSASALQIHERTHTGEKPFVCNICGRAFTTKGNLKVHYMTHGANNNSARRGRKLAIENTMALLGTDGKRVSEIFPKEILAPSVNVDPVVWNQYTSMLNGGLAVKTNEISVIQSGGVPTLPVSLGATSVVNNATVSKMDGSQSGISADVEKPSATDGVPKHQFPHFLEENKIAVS
Method: universal PBM
Molecule type: double-stranded DNA, one strand shown
Sample: in vitro
Concentration: 600 nM
Notes: 8-mer, flanks averaged, mean of replicates
Reading: higher = stronger binding
Strand | E-score
TCGGCGCA | -0.218
GGATGGCA | 0.0842
CCCCGAAC | -0.275
AGAAGTAA | 0.255
ATCCGCAA | -0.0118
CAGTATTC | 0.121
ACCAGCCT | -0.189
GGTGGGCA | -0.12
CAACATTA | 0.307
GCCATTGA | 0.0507
CTCTATCA | 0.0697
GGGTCTGA | -0.227
AACATGGC | -0.0766
AGAGGGGC | -0.325
AAACAGCT | -0.0613
ACGAGGGG | -0.286
ACGGTTTC | -0.237
AATAGCTG | 0.0462
CACGGGGA | -0.325
GGCAAATA | 0.252

Repeated from above (sample 7):
Strand | E-score
CCCCGAAC | -0.275
AGAAGTAA | 0.255
ATCCGCAA | -0.0118
CAGTATTC | 0.121
ACCAGCCT | -0.189
GGTGGGCA | -0.12
